Published values pooled from the literature.
Compare with care: the assays were run in different laboratories. “And” joins repeats or separate records; there may be more than shown. Numbers after ± are the reported error.
folP: Dihydropteroate synthase (folP, Bacteria, UniProt P0AC13)
ALB: Albumin (ALB, Homo sapiens, UniProt P02768)
T1: RNA aptamer; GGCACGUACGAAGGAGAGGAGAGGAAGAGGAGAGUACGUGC
T2: r(G4C2) repeat RNA, hairpin, 1x1 GG internal loops; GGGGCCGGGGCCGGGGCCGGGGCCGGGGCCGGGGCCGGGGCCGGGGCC
T3: RNA aptamer; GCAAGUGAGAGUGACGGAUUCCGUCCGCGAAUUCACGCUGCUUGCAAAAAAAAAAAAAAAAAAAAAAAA
T4: RNA aptamer; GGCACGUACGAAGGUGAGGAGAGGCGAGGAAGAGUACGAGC

Cc1ccc2c(c1)C(=Cc1sc3ccccc3[n+]1C)C=CN2C — Kd (T1, RNA aptamer; fluorescence titration): 1.97 nM
C#CCOc1ccc(C(=O)C(O)O)cc1 — binding (T2, r(G4C2) repeat RNA, hairpin, 1x1 GG internal loops; click labelling with TAMRA-azide, gel fluorescence; covalent, dose- and time-dependent): binds
CCOC(=O)Cc1n[nH]c2nc(N)[nH]c(=O)c2c1=O — melting temperature (folP; CETSA HiBiT; Escherichia coli, whole cells): 56.4 °C
CC[C@H](C)[C@H](NC(=O)[C@H](CCC(=O)O)NC(=O)[C@H](CCCNC(=N)N)NC(=O)[C@H](C)NC(=O)[C@H](Cc1c[nH]c2ccccc12)NC(=O)[C@H](CCC(=O)O)NC(=O)[C@H](CCC(=O)O)NC(=O)[C@H](CCC(=O)O)NC(C)=O)C(=O)NCC(=O)N[C@@H](C)C(=O)N[C@@H](CCC(N)=O)C(=O)N[C@@H](CC(C)C)C(=O)N[C@@H](CCCNC(=N)N)C(=O)N[C@@H](CCCNC(=N)N)C(=O)N[C@@H](C)C(=O)NCC(=O)N[C@@H](CC(=O)O)C(=O)N[C@@H](CC(=O)O)C(=O)N[C@@H](CC(C)C)C(=O)N[C@@H](CC(N)=O)C(=O)N[C@@H](C)C(=O)N[C@@H](CCC(N)=O)C(=O)N[C@@H](Cc1ccc(O)cc1)C(=O)N[C@@H](CCC(=O)O)C(=O)N[C@@H](CCCNC(=N)N)C(=O)N[C@@H](CCCNC(=N)N)C(=O)N[C@@H](CCCNC(=N)N)C(N)=O — ΔΔG (Induced myeloid leukemia cell differentiation protein Mcl-1 homolog, residues 152-308 (Mus musculus, UniProt P97287); binding, SPR; relative to: PUMA peptide): -1.67 kcal/mol
Cc1cc(C(=O)Nc2nc3cccc(C)c3n2[C@H]2CCCCN(C(=O)/C=C/CN(C)C)C2)ccn1 — kinase activity (CDC2-like kinase 1 (Trypanosoma brucei brucei, UniProt Q382U0); ADP-Glo; 0.1562 µM): 46.3%
CCCCCCCO[C@H]1O[C@H](CO)[C@@H](O)[C@H](O)[C@@H]1O — enthalpy change (ΔH obs) (Type 1 fimbrin D-mannose specific adhesin, lectin domain (fimH, Escherichia coli K-12, UniProt P08191); isothermal titration calorimetry; concentration not given, 37 °C): -14.6 kcal/mol
CCc1occc(=O)c1[O-].[Cl-].[W+4].c1cc[cH-]c1.c1cc[cH-]c1 — Stern-Volmer quenching constant (ALB; fluorescence quenching; 288 K): 14200 L/mol
CCCCCCCCCCCC=O — relative fluorescence (uncharacterized protein (Spodoptera exigua, UniProt F1CEY0); binding, competitor, fluorescence displacement; 20 µM, pH 7.4, together with: 1-NPN 20 µM; relative to: 1-NPN alone): 40.7%
CC(C)[C@@H]1NC(=O)[C@@H]2CCCN2C(=O)[C@H](CCCCN)NC(=O)[C@H](Cc2ccccc2)NC(=O)[C@H](Cc2ccccc2)NC(=O)[C@H](CC(=O)O)NC(=O)[C@H](CCC(=O)O)NC(=O)[C@H](Cc2ccc(O)cc2)NC(=O)[C@H](CC(=O)O)NC(=O)[C@H](CCC(=O)O)NC(=O)[C@H](CC(=O)O)NC(=O)[C@H](CCC(=O)O)NC(=O)[C@H](Cc2ccc(O)cc2)NC(=O)CSC[C@@H](C(=O)N[C@@H](Cc2ccc(O)cc2)C(=O)N[C@@H](Cc2ccccc2)C(N)=O)NC(=O)[C@H]([C@@H](C)O)NC1=O — Hill slope (CCL2 (Homo sapiens, UniProt P13500); chemokine binding, flow cytometry; THP-1; together with: fluorescent CCL2 1.2 nM): -0.823
CC1CCCN(CCCNC(=O)C2=Cc3sc4c(c3CS2)CCCC4)C1 (stereo not drawn) — ΔS (Catenin beta-1, residues 141-305 (CTNNB1, Homo sapiens, UniProt P35222); ITC; 25 °C): 0.8 cal/mol/K
Cn1nc(C(=O)O)c(=O)c2c(=O)[nH]c(N)nc21 — melting temperature shift (folP; CETSA HiBiT; Escherichia coli, whole cells; concentration not given; relative to: DMSO): 2.05 °C
Nc1ncnc2c1ncn2C1OC(COP(=O)(O)O)C(O)C1O (stereo not drawn) — Hill coefficient (Fructose-1,6-bisphosphatase 1 (Mus musculus, UniProt Q9QXD6); untagged wild type): 1.7 ± 0.09
C[C@@H](Nc1nc(N[C@H](C)C(F)(F)F)nc(-c2cccc(Cl)n2)n1)C(F)(F)F — maximum inhibition (Isocitrate dehydrogenase [NADP], mitochondrial, heterodimer with wild-type (IDH2, Homo sapiens, UniProt P48735, R172K); forward reaction; 16 h preincubation, wild type): 74.6 ± 1.4%
CN(CCCN1CCN(C(=O)CN2CCN(CC(=O)[O-])CCN(CC(=O)[O-])CCN(CC(=O)[O-])CC2)CC1)c1ccc2nccc(C(=O)NCC(=O)N3CC(F)(F)C[C@H]3C#N)c2c1.[Lu+3] — Stern-Volmer constant (ALB; fluorescence quenching, fluorescence spectroscopy): 13200 M⁻¹
CN(C)CCCSC(=S)N1CCN(C(=O)/C=C/c2coc3ccccc3c2=O)CC1 — normalised MST response (Nucleoprotein (N, Tomato spotted wilt virus, UniProt P25999); binding, microscale thermophoresis; 500 µM; dose series): 0.762
Cn1c(=O)n(C2CCC(=O)NC2=O)c2ccc(C3CCN(CC(=O)Nc4cccc(CS(=O)(=O)N5CC[C@H](Nc6cccc(-c7sc(C(=O)O)c(OCC(=O)O)c7Cl)c6)CC5(C)C)c4)CC3)cc21 (stereo partly drawn) — BLI binding response (PTPN1 (Homo sapiens, UniProt P18031); degrader, bio-layer interferometry; 1000 nM, biotinylated protein immobilised; higher = more binding): 0.239 a.u.
N#CN1CC[C@H](C(=O)Nc2nc3c(s2)CN(C(=O)Cn2cc(COCCOCCOCCOCCNC(=O)CCCC[C@@H]4SC[C@@H]5NC(=O)N[C@@H]54)nn2)CC3)C1 — iBAQ abundance (USP10 (Homo sapiens, UniProt Q14694); probe binding, affinity probe, neutravidin pull-down LC-MS/MS; HEK293T, cell lysate; 5 µM, 1 h, single replicate, unit not given; higher = more pulled down): 1.44e+06 and 1.14e+06 and 1.58e+06
CC[C@H](C)[C@@H]1NC(=O)[C@H](Cc2ccccc2)NC(=O)[C@H](CCC(=O)O)NC(=O)[C@H](CCCNC(=N)N)NC(=O)CNC(=O)[C@@H](NC(=O)[C@H](CC(C)C)NC(=O)[C@H](CCCNC(=N)N)NC(=O)[C@@H](NC(=O)CNC(=O)[C@H](Cc2ccc(O)cc2)NC(=O)[C@@H]2CCCN2C(=O)[C@H](C)NC(=O)[C@H](C)NC(=O)[C@@H](N)CCCNC(=N)N)C(C)C)CSSC[C@@H]2NC(=O)[C@@H](NC(=O)[C@H](CO)NC(=O)[C@H](CO)NC(=O)[C@H](CO)NC(=O)[C@H](CC(C)C)NC(=O)CNC(=O)[C@H](C)NC(=O)[C@H](CC(C)C)NC(=O)[C@@H](NC(=O)[C@@H](N)CC(=O)O)C(C)C)CSSC[C@H](NC(=O)CNC(=O)[C@H](Cc3c[nH]c4ccccc34)NC(=O)[C@H](CCCCN)NC2=O)C(=O)N[C@@H](CO)C(=O)N[C@@H](CCCCN)C(=O)N[C@@H](CO)C(=O)N[C@@H](CCC(=O)O)C(=O)N[C@@H]([C@@H](C)CC)C(=O)N[C@@H](CO)C(=O)N[C@@H](CO)C(=O)N[C@@H](CC(C)C)C(=O)N[C@H](C(=O)O)CSSC[C@@H](C(=O)NCC(=O)NCC(=O)N[C@@H](CO)C(=O)N[C@@H](CCCNC(=N)N)C(=O)N[C@@H](Cc2c[nH]c3ccccc23)C(=O)O)NC(=O)[C@H]([C@@H](C)O)NC(=O)[C@H](Cc2ccccc2)NC(=O)[C@H]([C@@H](C)CC)NC(=O)[C@H](C(C)C)NC(=O)[C@H](C)NC(=O)[C@H](CCCNC(=N)N)NC1=O — cAMP accumulation (RXFP4 (Homo sapiens, UniProt Q8TDU9); agonist; 15.6 nM, wild-type receptor): 13.5% and 49.9% and 32.9%
CCCCCC=CC=C1C(=O)C=CC1CC=CCCCC(=O)O (stereo not drawn) — isoTOP-ABPP competition ratio (Methylosome protein WDR77 (WDR77, Homo sapiens, UniProt Q9BQA1); competitive isoTOP-ABPP, refers to: WDR77 cysteine peptide; Ramos soluble proteome; 100 µM, together with: iodoacetamide probe; relative to: DMSO over compound-treated, higher = stronger cysteine blockade): 3.1
CC(CC(=O)O)c1n[nH]c2nc(N)[nH]c(=O)c2c1=O (stereo not drawn) — melting temperature shift (folP; CETSA HiBiT; Escherichia coli, whole cells; concentration not given; relative to: DMSO): 0.813 °C
CC[C@H](C)[C@H](NC(=O)[C@H](Cc1c[nH]cn1)NC(C)=O)C(=O)N[C@@H](CCCCN)C(=O)N[C@H](C(=O)N[C@@H](Cc1c[nH]cn1)C(=O)N[C@@H](CC(C)C)C(=O)N[C@@H](CC(=O)O)C(=O)N[C@@H](CCC(=O)O)C(=O)N[C@@H](CCC(=O)O)C(=O)N[C@H](C(=O)NCC(=O)N[C@@H](CCC(=O)O)C(=O)N[C@@H](CCCCN)C(=O)N[C@H](C(=O)N[C@@H](CO)C(=O)N[C@H](C(=O)N[C@H](C(=O)N[C@@H](CC(C)C)C(=O)N[C@@H](CC(=O)O)C(=O)N[C@H](C(N)=O)C(C)C)[C@@H](C)O)[C@@H](C)CC)[C@@H](C)O)[C@@H](C)O)[C@@H](C)O — TΔS (Kelch-like ECH-associated protein 1, Kelch domain (KEAP1, Homo sapiens, UniProt Q14145); binding, ITC; pH 7, 298.15 K): -9.87 kcal/mol
Fc1ccc(Nc2nc(NCc3ncccn3)nc(Nc3ccccc3)n2)cc1 — Kd (T3, RNA aptamer; SPR; 25 °C, read off a plot): 30 nM
COc1ccc(-c2ccc3c(c2)C(=Cc2sc4ccccc4[n+]2CC(=O)NCCOCCOCCOCCNC(=O)CCCC[C@@H]2SC[C@@H]4NC(=O)N[C@@H]42)C=CN3C)cc1 — Kd (T4, RNA aptamer; fluorescence titration): 0.22 nM
Cc1n[nH]c2nc(N)[nH]c(=O)c2c1=O — melting temperature shift (folP; CETSA HiBiT; Escherichia coli, cell lysate; concentration not given; relative to: DMSO): 12.9 °C
COc1ccccc1-c1ccncc1C(=O)Nc1nnc(OCc2ccc(Cl)cc2)s1 — remaining activity (RECQL5 (Homo sapiens, UniProt O94762); ATPase activity, ADP-Glo; 3.8 µM, 1 h): 101%
Cn1nc(CCC#N)c(=O)c2c(=O)[nH]c(N)nc21 — melting temperature shift (folP; CETSA HiBiT; Escherichia coli, cell lysate; concentration not given; relative to: DMSO): 9.39 °C
CC(C)[C@@H]1NC(=O)[C@H](Cc2ccccc2)NC(=O)CSC[C@@H](C(N)=O)NC(=O)[C@H](CCC(=O)O)NC(=O)[C@H](CO)NC(=O)[C@H](Cc2c[nH]c3cccc(Cl)c23)NC(=O)[C@H](C2CCCCC2)NC(=O)[C@H](C(C)C)NC(=O)[C@H](Cc2ccc(O)cc2)NC(=O)[C@H](CC(=O)O)NC(=O)[C@H](Cc2c[nH]c3ccccc23)NC(=O)[C@H](Cc2ccc(N)nc2)NC(=O)[C@H](Cc2c[nH]c3ccc(Cl)cc23)NC(=O)[C@H](CCC(=O)O)NC1=O — remaining activity (Interleukin-1 receptor-like 2 (IL1RL2, Homo sapiens, UniProt Q9HB29); reporter gene (SEAP), inhibitor, HEK-Blue IL-36R reporter; HEK-Blue IL-36R cells; 1.23 µM, 6 h, together with: IL-36β 3 ng/mL): 84.5%
